# Published values of several laboratories.
# Several values in a cell are separate wells, animals, samples, runs or records. ± gives the spread as reported.
Structure (SMILES),tested on,assay,test system,conditions,endpoint,result
CC[C@H](C)[C@@H]1NC(=O)[C@H](Cc2ccc(O)cc2)NC(=O)CCCSC[C@@H](C(=O)N(CC(=O)N[C@@H](CC(C)C)C(=O)NCC(N)=O)Cc2ccc(F)cc2)NC(=O)[C@H](CC(N)=O)NC(=O)[C@H](CCC(N)=O)NC1=O,,,human,"intranasal, 15 µg single dose",deaths,0%
CCC1=C(C)C2=C(c3ccc(P(=NC4=[O+][Ru-]([Cl])[n+]5ccccc54)(c4ccccc4)c4ccccc4)cc3)c3c(C)c(CC)c(C)n3[B-](C)(C)[N+]2=C1C.Cc1ccc(C(C)C)cc1.[Cl-],,,DMSO-d6 solution,,stability time,≥ 2.5 weeks
COCC1CN(C2CCN(c3cc(OC)c(Nc4ncc(Br)c(Nc5ccc6c(c5P(C)(C)=O)OCCO6)n4)cc3C)CC2)C1,,,EGFR-mutant NSCLC patients,"oral, 10 mg once daily",treatment-related AEs leading to death,0%
CC(C)[C@H](NC(=O)[C@@H](NC(=O)[C@H](CCCNC(=N)N)NC(=O)[C@H](CCCNC(=N)N)NC(=O)[C@H](CCCNC(=N)N)NC(=O)[C@H](CCC(N)=O)NC(=O)[C@H](CCCNC(=N)N)NC(=O)[C@H](CCCNC(=N)N)NC(=O)[C@H](CCCCN)NC(=O)[C@H](CCCCN)NC(=O)[C@H](CCCNC(=N)N)NC(=O)CN)[C@@H](C)O)C(=O)N[C@H](C(=O)N[C@@H](CO)C(=O)N1CCC[C@H]1C(=O)O)[C@@H](C)O,,,"ICR mice, female, brain","intranasal, 5 mg/kg daily, 4 weeks",organ weight,0.575 ± 0.033 g
CS(=O)(=O)c1cc(Cl)cc(-c2cc(Cl)c(Cl)cc2Cl)c1Cl,,ultrafiltration,cow milk whey,100 nM nominal in whole milk,dose fraction in permeate,40.4%
O=C1NC2(CC2)COc2ncc(F)cc2[C@H]2COCCN2c2ccn3ncc1c3n2,,,"Sprague-Dawley rat, male, kidneys","oral, 2.5 mg/kg/day, 4 weeks dosing, end of recovery",organ-to-brain weight ratio,150 ± 14.4%
CCN(CCCCOc1ccc(CCC(=O)N2CCC(Cc3ccccc3)CC2)cc1OC)Cc1ccccc1,,,"Sprague-Dawley rats, both sexes, faeces","oral gavage, 25 mg/kg, 24 to 48 h",excreted amount,50800 ± 4570 ng
O=C(O)/C=C\c1ccc2occc2c1O[C@@H]1O[C@H](CO)[C@@H](O)[C@H](O)[C@H]1O,,post-procedure stability,rat plasma,"200 ng/mL, 3 h, room temperature",accuracy,110%
NC1CCN(C(=O)Oc2ccc(C3CCCC4(C3)OOC3(O4)C4CC5CC(C4)CC3C5)cc2)CC1 (racemic),,,"male ICR mice, plasma","oral, 50 mg/kg",half-life,7.12 h
CCn1ccc(-c2cc([C@@H](C)NC(=O)c3cc(OC[C@@H]4CCCN4C)ccc3C)c3ccccc3n2)n1,Vero E6,,,31.25 µM,viability,40.3% and 38.7% and 30.1%
[Ga+3].[O-]c1ccc(Br)c2cccnc12.[O-]c1ccc(Br)c2cccnc12.[O-]c1ccc(Br)c2cccnc12,,,oil/water,pH 5.4,partition coefficient,28.5
CC[C@H](C)[C@H](NC(=O)[C@H](C)NC(=O)CNC(=O)[C@H](CCCCN)NC(=O)[C@@H](NC(=O)[C@H](CC(C)C)NC(=O)[C@H](C)NC(=O)CNC(=O)[C@H](CC(C)C)NC(=O)[C@@H](N)Cc1ccccc1)[C@@H](C)CC)C(=O)N[C@@H](Cc1c[nH]cn1)C(=O)NCC(=O)NCC(=O)N[C@@H](CCCNC(=N)N)C(=O)N[C@@H](Cc1ccccc1)C(=O)N[C@H](C(=O)N[C@@H](Cc1c[nH]cn1)C(=O)NCC(=O)N[C@@H](CCSC)C(=O)N[C@H](C(=O)N[C@@H](CCC(N)=O)C(=O)N[C@@H](CC(N)=O)C(=O)N[C@@H](Cc1c[nH]cn1)C(=O)N[C@@H](Cc1c[nH]cn1)C(N)=O)[C@@H](C)CC)[C@@H](C)CC,,,"zebrafish embryos 4 hpf, E3 medium",1 h,acute toxic concentration,5 µM
CC(C)[C@@H]1NC(=O)CNC(=O)[C@H](CC(N)=O)NC(=O)[C@H](CCCNC(=N)N)NC(=O)[C@H](Cc2ccc(O)cc2)NC(=O)[C@H](C(C)C)NC(=O)[C@@H](NC(=O)[C@@H](NC(=O)[C@H](CC(N)=O)NC(=O)[C@H](Cc2c[nH]c3ccccc23)NC(=O)[C@H](C)NC(=O)[C@H](Cc2ccccc2)NC(=O)CNC(=O)[C@H](CCCCN)NC(=O)[C@H](Cc2ccccc2)NC(=O)[C@H](Cc2ccccc2)NC(=O)[C@H](CCCCN)NC(=O)OCC2c3ccccc3-c3ccccc32)C(C)C)CSSC[C@@H](C(=O)N[C@@H](Cc2c[nH]cn2)C(=O)N[C@@H](CCCNC(=N)N)C(=O)N[C@@H](CCCNC(=N)N)C(=O)N[C@@H](C)C(=O)N[C@@H](CC(N)=O)C(N)=O)NC(=O)[C@H](C(C)C)NC(=O)[C@H](CCCNC(=N)N)NC1=O,,,"ICR mouse, serum","ip, 5 mg/kg, 3 d dosing, blood day 5",total protein,53.5 ± 1.19 g/L
Cc1ccc(OCCN(C)C)cc1C(=O)N[C@H](C)c1cc(-c2ccnn2C)nc2ccccc12,Vero E6,,,31.25 µM,viability,91.2%
CC[C@H](C)[C@H](NC(=O)[C@H](CCCCN)NC(=O)CNC(=O)[C@H](CC(C)C)NC(=O)[C@H](Cc1ccccc1)NC(=O)[C@H](CCCCN)NC(=O)[C@H](CO)NC(=O)[C@H](Cc1ccccc1)NC(=O)[C@H](Cc1c[nH]c2ccccc12)NC(=O)[C@H](CCC(N)=O)NC(=O)[C@@H](NC(=O)[C@H](Cc1ccccc1)NC(=O)CCCCCNC(=O)CN1CCN(CC(=O)O)CCN(CC(=O)O)CCN(CC(=O)O)CC1)C(C)C)C(=O)N[C@@H](CCC(=O)O)C(=O)N1CCC[C@H]1C(=O)N[C@@H](CC(=O)O)C(=O)N[C@H](C(=O)N[C@@H](CO)C(=O)N[C@@H](CCC(N)=O)C(=O)N[C@H](C(=O)N[C@@H](CCC(N)=O)C(=O)N[C@@H](CC(=O)O)C(=O)N1CCC[C@H]1C(=O)N[C@@H](CC(N)=O)C(=O)N[C@@H](CC(=O)O)C(=O)N[C@@H](CCC(N)=O)C(=O)N[C@@H](Cc1ccc(O)cc1)C(=O)N[C@@H](CCC(=O)O)C(=O)N1CCC[C@H]1C(=O)N[C@@H](Cc1ccccc1)C(=O)O)C(C)C)C(C)C [copper-64 labelled],,,"BALB/c mice, male, CT26 tumour-bearing, liver","2 h, vehicle-treated",tissue uptake,8.54 ± 0.8 %ID/g

# A few entries again:
Structure (SMILES),tested on,assay,test system,conditions,endpoint,result
[Ga+3].[O-]c1ccc(Br)c2cccnc12.[O-]c1ccc(Br)c2cccnc12.[O-]c1ccc(Br)c2cccnc12,,,oil/water,pH 5.4,partition coefficient,28.5
